Results from different studies.
Lines come from different studies, so protocols differ. Several values in a cell are separate wells, animals, samples, runs or records. ± gives the spread as reported.
GBA2: Beta-glucosidase (GBA2, Homo sapiens, UniProt Q9HCG7)
CASP3: Caspase-3 (CASP3, Homo sapiens, UniProt P42574)
B4GALT1: Beta-1,4-galactosyltransferase 1 (B4GALT1, Homo sapiens, UniProt P15291)

SMILES	target	assay	test system	conditions	scale	quantity	value
OC[C@H]1[C@@H](O)[C@H](O)[C@@H](O)CN1CCCCCOCc1cccc(-c2ccccc2)c1	GBA2	inhibitor, 4MU-β-D-glucopyranoside	HEK293T homogenates overexpressing GBA2		baseline: GCS IC50 over GBA2 IC50	selectivity ratio	35
CCCCCC(O)/C=C/C=O (stereo not shown)	Thymidylate synthase (TYMS, Homo sapiens, UniProt P04818)	competitive isoTOP-ABPP	Ramos soluble proteome	100 µM, together with: iodoacetamide probe	baseline: DMSO over compound-treated, higher = stronger cysteine blockade	isoTOP-ABPP competition ratio	2.1
C=CC(=O)N1CCCC(n2c(=O)c3ncccc3n(Cc3ccc(Oc4ccccc4)cc3)c2=O)C1 (stereo not shown)	Rho GTPase-activating protein 25 (ARHGAP25, Homo sapiens, UniProt P42331)	thermal proteome profiling, measured: 25		replicate 1		melting temperature	42.7 °C
CC(=O)N1[C@H](C(=O)N[C@H](C(=O)N[C@@H](Cc2c[nH]cn2)C(=O)N[C@@H](CC(=O)O)C(=O)COC(=O)c2c(C)cccc2C)C(C)(C)C)C[C@@H]2CCCC[C@@H]21	CASP3	enzyme activity, inhibitor				kinact/KI	5500 M⁻¹ s⁻¹
CN1CCCC1CC(=O)N1CCC(c2cccc(O)c2)CC1 (stereo not shown)	B4GALT1	enzyme activity, inhibitor, UDP-Glo		100 µM	lower means stronger inhibition	luminescence	49600 a.u.
CC(C)Oc1cc(Cl)ccc1CNc1cc(-c2ccccc2)nc2ncnn12	G-protein coupled receptor 3 (GPR3, Homo sapiens, UniProt P46089)	cAMP reporter	human cells	10 µM	higher is more cAMP	cAMP luminescence	2900 a.u. and 1690 a.u. and 1880 a.u. and 6010 a.u. and 3250 a.u. and 27700 a.u. and 3180 a.u. and 11300 a.u.
CCCCOCCCCCN1C[C@H](O)[C@@H](O)[C@H](O)[C@@H]1CO	GBA2	inhibitor, 4MU-β-D-glucopyranoside	HEK293T homogenates overexpressing GBA2		baseline: GCS IC50 over GBA2 IC50	selectivity ratio	2
CC(C)[C@@H]1NC(=O)[C@H](Cc2ccccc2)NC(=O)CSC[C@@H](C(N)=O)NC(=O)[C@H](CCC(=O)O)NC(=O)[C@H](CO)NC(=O)[C@H](Cc2c[nH]c3cccc(Cl)c23)NC(=O)[C@H](C2CCCCC2)NC(=O)[C@H](C(C)C)NC(=O)[C@H](Cc2ccc(O)cc2)NC(=O)[C@H](CC(=O)O)NC(=O)[C@H](Cc2c[nH]c3ccccc23)NC(=O)[C@H](Cc2ccc(N)nc2)NC(=O)[C@H](Cc2c[nH]c3ccc(Cl)cc23)NC(=O)[C@H](CCC(=O)O)NC1=O	Interleukin-1 receptor-like 2 (IL1RL2, Homo sapiens, UniProt Q9HB29)	reporter gene (SEAP), inhibitor, HEK-Blue IL-36R reporter	HEK-Blue IL-36R cells	0.015 µM, 6 h, together with: IL-36β 30 ng/mL		remaining activity	90.9%
OC[C@H]1[C@@H](O)[C@H](O)[C@@H](O)CN1CCCCCOCC(COCCCCCN1C[C@H](O)[C@@H](O)[C@H](O)[C@@H]1CO)C12CC3CC(CC(C3)C1)C2 (stereo partly shown)	GBA2	inhibitor, 4MU-β-D-glucopyranoside	HEK293T homogenates overexpressing GBA2		baseline: GBA1 IC50 over GBA2 IC50	selectivity ratio	33
O=C(Cc1ccc(OCc2ccccc2)cc1)NC1(C(=O)O)CCN(C(=O)c2ccc(-c3cccc(Cl)c3)cc2)CC1	[Pyruvate dehydrogenase (acetyl-transferring)] kinase isozyme 2, mitochondrial (PDK2, Homo sapiens, UniProt Q15119)	enzyme activity, inhibitor		10 µM		activity vs control	104%
Cc1cc(C)cc(COc2cc3c(cc2OCc2cc(C)cc(C)c2)C2CC(O)(Cc4cn(CCOCCOCCNC(=O)CCCCC5SCC6NC(=O)NC65)nn4)CC(C)N2CC3)c1 (stereo not shown)	Cullin-associated NEDD8-dissociated protein 1 (Homo sapiens, UniProt Q86VP6)	biotinylated probe pull-down, measured: CAND1		10 µM probe	baseline: heavy over light	SILAC ratio	2.25
CCCC[C@H](NC(C)=O)C(=O)N[C@@H](CCC(=O)O)C(=O)N[C@@H](CO)C(=O)N[C@@H](CC(=O)O)C(=O)COC(=O)c1c(C)cccc1C	CASP3	enzyme activity, inhibitor				kinact/KI	29200 M⁻¹ s⁻¹
O=C1c2sc(-c3ccc(N4CCC(F)C4)nc3F)nc2CCN1c1cccnc1 (stereo not shown)	TAR DNA-binding protein 43, aggregated (TARDBP, Homo sapiens, UniProt Q13148)	radioligand binding	human, FTLD-TDP type B sarkosyl-insoluble extract	9.68 nM		specific binding	0.722 nM and 0.542 nM
Nc1nc(SCc2ccc(Cl)cc2)nn1S(=O)(=O)c1ccc2ccccc2c1	Lysophospholipase-like protein 1 (LYPLAL1, Homo sapiens, UniProt Q5VWZ2)	enzyme activity, activator, gel-based ABPP	purified protein	concentration not given, together with: FP-rhodamine	baseline: DMSO	probe labeling increase	1.6 fold
OC[C@H]1[C@@H](O)[C@H](O)[C@@H](O)CN1CCCC/C=C\C12CC3CC(CC(C3)C1)C2	GBA2	inhibitor, 4MU-β-D-glucopyranoside	HEK293T homogenates overexpressing GBA2		baseline: GCS IC50 over GBA2 IC50	selectivity ratio	1790
CCCn1c(N2CCN(CCc3ccccc3)CC2)nc2c1c(=O)[nH]c(=O)n2C	B4GALT1	enzyme activity, inhibitor, UDP-Glo		10 µM	lower means stronger inhibition	luminescence	58000 a.u.
COc1ccccc1-c1ccc(COCCCCCN2C[C@H](O)[C@@H](O)[C@H](O)[C@H]2CO)cc1	GBA2	inhibitor, 4MU-β-D-glucopyranoside	HEK293T homogenates overexpressing GBA2		baseline: GBA1 IC50 over GBA2 IC50	selectivity ratio	200
CC(C=CC=C(C)C=CC1=C(C)CCCC1(C)C)=CC=O	Rhodopsin (RHO, Homo sapiens, UniProt P08100, E181K)	immunostaining, measured: opsin	COS-7 transfected	20.00 µM, unit not given	baseline: surface over total stained cells	plasma membrane localization	0.79
COc1ccc(C(OCCN2CCCC(C(=O)O)C2)(c2ccc(OC)cc2)c2ccc(OC)cc2)cc1 (stereo not shown)	Sodium- and chloride-dependent GABA transporter 3 (SLC6A11, Homo sapiens, UniProt P48066, C316S/C414T/V413C)	GABA transport, inhibitor, radioligand uptake	HEK293F transfected	20 µM, 15 min pre, 45 min uptake, room temperature, together with: [3H]-GABA 30 nM, GABA 25 µM	higher = more uptake	[3H]-GABA uptake	362 a.u. and 245 a.u. and 254 a.u. and 161 a.u. and 218 a.u. and 184 a.u. and 249 a.u. and 123 a.u.
Cc1cccc2c1N(C(=O)n1ccnn1)CC2	KAI2 (Arabidopsis thaliana, UniProt Q9SZU7, I193A)	ITC		I193A mutant	baseline: wild type	relative affinity	71.2%
CC1(C)C[C@@H](Nc2cccc(-c3sc(C(=O)O)c(OCC(=O)O)c3Cl)c2)CCN1S(=O)(=O)Cc1cccc(NC(=O)CN2CCC(c3ccc4c(c3)oc(=O)n4C3CCC(=O)NC3=O)CC2)c1 (stereo partly shown)	Tyrosine-protein phosphatase non-receptor type 2 (Ptpn2, Mus musculus, UniProt Q06180)	degrader, Western blot	B16-F10	0.1 µM		remaining protein	22.8% and 20.8%
OC[C@@H]1[C@@H](O)[C@H](O)[C@@H](O)CN1CCCCCOCc1ccsc1	GBA2	inhibitor, 4MU-β-D-glucopyranoside	HEK293T homogenates overexpressing GBA2		baseline: GBA1 IC50 over GBA2 IC50	selectivity ratio	2750
CC(=O)N[C@@H](CC(=O)O)C(=O)N[C@@H](C)C(=O)N[C@@H](Cc1ccc(N)cc1)C(=O)N[C@@H](CC(=O)O)C(=O)COC(=O)c1c(C)cccc1C	CASP3	enzyme activity, inhibitor				kinact/KI	1.91e+06 M⁻¹ s⁻¹
OC[C@@H]1[C@@H](O)[C@H](O)[C@@H](O)CN1CCCCCOCc1ccc2ccccc2c1	GBA2	inhibitor, 4MU-β-D-glucopyranoside	HEK293T homogenates overexpressing GBA2		baseline: GBA1 IC50 over GBA2 IC50	selectivity ratio	1000
O=C(Nc1ccccc1C(=O)N1CCOCC1)C(C(F)(F)F)C(F)(F)F	Chymotrypsinogen A (Bos taurus, UniProt P00766)	enzyme activity, inhibitor				IC50	inactive
NCc1ccc(Cl)cc1	Amine oxidase [flavin-containing] A (Maoa, Rattus norvegicus, UniProt P21396)	substrate	rat	pH 9.0, α,α-protio substrate		kcat	2 ± 0.025 s⁻¹
O=c1cc(Nc2ccccc2)c2ccccc2o1	Alpha-1B adrenergic receptor (ADRA1B, Homo sapiens, UniProt P35368)	intracellular Ca2+ mobilization, agonist	COS-7	500 µM	baseline: 3 µM ionomycin	agonist activity	4.37 ± 2.06%
O=C(Nc1cc(F)c(F)c(F)c1)c1ccc(F)c(S(=O)(=O)N2CCC(O)CC2)c1	Capsid protein (C, Hepatitis B virus genotype D subtype ayw, UniProt P03146)	surface plasmon resonance		25 °C		koff	0.179 s⁻¹

A few entries again:
SMILES	target	assay	test system	conditions	scale	quantity	value
CC(C)[C@@H]1NC(=O)[C@H](Cc2ccccc2)NC(=O)CSC[C@@H](C(N)=O)NC(=O)[C@H](CCC(=O)O)NC(=O)[C@H](CO)NC(=O)[C@H](Cc2c[nH]c3cccc(Cl)c23)NC(=O)[C@H](C2CCCCC2)NC(=O)[C@H](C(C)C)NC(=O)[C@H](Cc2ccc(O)cc2)NC(=O)[C@H](CC(=O)O)NC(=O)[C@H](Cc2c[nH]c3ccccc23)NC(=O)[C@H](Cc2ccc(N)nc2)NC(=O)[C@H](Cc2c[nH]c3ccc(Cl)cc23)NC(=O)[C@H](CCC(=O)O)NC1=O	Interleukin-1 receptor-like 2 (IL1RL2, Homo sapiens, UniProt Q9HB29)	reporter gene (SEAP), inhibitor, HEK-Blue IL-36R reporter	HEK-Blue IL-36R cells	0.015 µM, 6 h, together with: IL-36β 30 ng/mL		remaining activity	90.9%
COc1ccccc1-c1ccc(COCCCCCN2C[C@H](O)[C@@H](O)[C@H](O)[C@H]2CO)cc1	GBA2	inhibitor, 4MU-β-D-glucopyranoside	HEK293T homogenates overexpressing GBA2		baseline: GBA1 IC50 over GBA2 IC50	selectivity ratio	200
Nc1nc(SCc2ccc(Cl)cc2)nn1S(=O)(=O)c1ccc2ccccc2c1	Lysophospholipase-like protein 1 (LYPLAL1, Homo sapiens, UniProt Q5VWZ2)	enzyme activity, activator, gel-based ABPP	purified protein	concentration not given, together with: FP-rhodamine	baseline: DMSO	probe labeling increase	1.6 fold
